Assay results pooled from the literature.
Every numbered part comes from another study and shows a few of its results, in no order. Substitutions count along the parent as printed.

Study 1
Target: ABI1, truncated, D143A, DHFR fusion (Arabidopsis thaliana)
Method: DHFR PCA, deep sequencing
Medium: yeast
Notes: methotrexate growth selection, single substitutions
With: (+)-ABA 200 µM
Relative to: wild-type fitted maximum
Reading: higher = stronger binding
Starting sequence: PYL1, truncated, DHFR fusion (Arabidopsis thaliana); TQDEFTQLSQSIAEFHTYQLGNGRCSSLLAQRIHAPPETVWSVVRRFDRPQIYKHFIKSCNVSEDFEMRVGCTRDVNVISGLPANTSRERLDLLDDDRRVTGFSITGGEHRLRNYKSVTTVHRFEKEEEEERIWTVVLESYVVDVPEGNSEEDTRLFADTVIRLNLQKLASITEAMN
Change | relative binding score
T73M | 107%
A13C | 94.1%
Q167C | 90%
K54C | 3.5%
R111N | 85.2%
C25T | 103%
E174H | 81.8%
F5Q | 98%
I33C | 90.8%
G81H | 36.5%
E67H | 104%
G23Q | 88.5%
H122I | 44.5%
P37D | 71.5%
T160I | 75.9%
F15W | 104%
R163K | 101%

Study 2
Target: Sal-like protein 4, full length isoform B (SALL4, Homo sapiens, UniProt Q9UJQ4-2, residues 1-616)
Method: universal PBM
Form: double-stranded DNA, one strand shown
Medium: in vitro
Tested at: not given
Notes: 8-mer, flanks averaged, mean of replicates
Reading: higher = stronger binding
Oligonucleotide | E-score
CGAAAGAA | 0.0793
ACGGAACG | -0.11
CCTCTTGA | 0.0512
GATATCAA | 0.248
ACTGTGTG | -0.137
AGAAATTG | 0.273
AACACACA | 0.112
ACCGATCA | 0.0508
ACTATACC | 0.149
AAGCAACG | -0.0622
TCATCAAA | 0.0142
GCATGCAA | 0.0547
GTGAGCAC | -0.0934
GTAAATAC | 0.17
CCAGTCTC | -0.28
GTCAGCCA | -0.104
AATAGAGC | 0.107
CTTTAAAA | 0.232
GCAAGCCC | -0.303
CGGTTGTC | -0.102
GCTCCCAA | -0.169
GCAGGCCA | -0.269
CGACGAAC | -0.123
CGCTCCCG | -0.28
CCAAGGGA | -0.235

Study 3
Target: RNA binding protein fox-1 homolog 2, RRM domain, GST-SBP tag (RBFOX2, Homo sapiens, UniProt O43251-10, residues 100-194)
Method: RNA Bind-n-Seq
Form: RNA
Medium: in vitro
Tested at: 365 nM
Notes: natural RNA segment, single round, ends assumed
Relative to: no-protein control
Reading: higher = stronger binding
Shared flanks, not repeated: GGGAGUUCUACAGUCCGACGAUC … UGGAAUUCUCGGGUGCCAA
Residues (chain): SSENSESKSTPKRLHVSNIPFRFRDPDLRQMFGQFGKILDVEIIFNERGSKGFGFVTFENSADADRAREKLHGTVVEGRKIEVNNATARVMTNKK
Oligonucleotide | RBNS enrichment (R)
GUCUUUCCUAUGAAAAUGCCAUCUGUAGACCUUGUGAGUCAGCCGUCCAGAUGUUUGCAGGUGAAUUCCUCUGCUUGACAUCCUCCCUGUCACUUUGGACCCUAUGGGAG | 0.536
CCAGUGAAAGCUGUCCUUCCUGUAUUCUGUUCUCUGGUAAUGUAAUAAGCAUGAUGGUGCCUUCUAUUACAUCAUUCCAGUCUUGCUGGUGAUCCUGUACGGUGUGGUCU | 2.35
AAGACAUCCUUUCUAAAGAUUCAAGUGGACUUGACUAAGCUGAGGGUCCACGAAAUAGAAUAUGACAUGUGAGCUGUUUUUGGAAAACGAAGAUGGAGAGAGCACUUCCC | 0.25
AAUGUAGUUAAAUUCAUCUUUAAAGUACACAUAUGUGCCUAGAGCCAAAAAAUAAUAAUGAUUUAAUUUAUGACCUUAUGUUGAGACUAAUUUCACAUCUUAUUUUGCAG | 0.531
CCCAGCAUUUGGGAAACAGAGGCAAGAGGAUUGCUGCAAGUUUAAGGCCAGCCUGUCUACAUAGGGAGGUCCAGGCCAGGGAUGUAUAUCAAGAUCUUGUUUCAAAAAAU | 0.86
CAUAAACCUUAAUCUGGAGAAGAAGUUUUGAUGCUGGAAGUGAGCAUCAGCUAUUGAGAUAGGCCUGCUCAGUUAAUAUGGCUUCCUGGCCAGUAGGCAUUCUGUACCAA | 0.495
UUAGCAAUCUAUUGGGUCAACUGACAUCCAUUGUAUAUACUAGUUUCUUUCAUGCUAUUUUUAUUUUGUUUUUUGCAUUUUUAUCAAAUGCAGGGCCCCUUUCUGAUCUC | 1.29
GUAUCUCCAAGAUGAGACUCAACAGGACUUGGAUUUUGAGAAGCCCAGGCUCUAAAUAAUAGCCUCAGGUCAUCAGGGGGACAGACUGAGUGUCUGUGAUCACUAACAGG | 0.293
AAGGUGGUCUCUUUUGCUUGCUUCUUUUAAAUGUUUUCCUUUGUAUUUGAUGACAAAUGUUUGUAUCCUUACAAAAGACCUUGUAUGUUUACGAAUUCUGCCAUGCAGCG | 1.44
CUGAUAUUAUGGCAAGUGAUAUCACCUCUCUUCAGCCCCUAGUGCUAUUCUGUGUUGAACACAAUUGAUACUUCAGGUGCUUUUGAUGUGAAAAUCAUGAAAAGAGGAAC | 0.29
CCCCCUUCACUCUGCCUUCCUGAGUUGGCCCCACUCUGCACGGGAGGGAGGGCCCACCUUAGACUGCUGGGGAGAGGCCACAGGGCUGGGGGCCAGGUCCGGCCAGCUGU | 1.24
UCACAUGCAACAACGGAAGGAGAUUCAAGAGUCUGCCAUCCCUUAGCAGCCCCUAAGUGGGCCUCUAGAGCUGAAGACACACCCCUGGUGCCACCAGCCUGUGUGGCCCC | 0.77

Study 4
Target: RING finger protein unkempt homolog, zinc fingers 1-6, GST-SBP tag (UNK, Homo sapiens, UniProt Q9C0B0, residues 30-357)
UniProt Q9C0B0, sequence (30-357, looked up): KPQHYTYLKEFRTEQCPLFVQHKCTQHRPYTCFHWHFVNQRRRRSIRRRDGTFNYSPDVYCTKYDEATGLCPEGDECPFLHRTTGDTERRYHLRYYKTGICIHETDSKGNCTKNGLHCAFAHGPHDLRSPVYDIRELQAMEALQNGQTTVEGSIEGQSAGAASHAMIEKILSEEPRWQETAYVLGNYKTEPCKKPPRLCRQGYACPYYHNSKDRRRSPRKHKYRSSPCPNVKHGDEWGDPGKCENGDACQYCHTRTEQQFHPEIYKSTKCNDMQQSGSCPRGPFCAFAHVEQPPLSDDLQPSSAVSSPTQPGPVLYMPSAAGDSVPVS
Method: RNA Bind-n-Seq
Form: RNA
Medium: in vitro
Tested at: not given
Notes: RNA with constant flanks, human-mouse chimeric sites, ends assumed
Relative to: input RNA pool
Reading: higher = stronger binding
Shared flanks, not repeated: GGGAGUUCUACAGUCCGACGAUC … CAACAGAGGAUUGAGCAUCA
Oligonucleotide | bound/input enrichment [ratio]
UCCCAAAUUAUAAGGCAAGAAGGAGCCUUGAGACAAACACUCCACACACAGGGAAGGCAAUAGCUUUGUACAUUGGUUUACAUUUUUUCCCCCUGUGGAUUUUUCUAGAGGUCAUAGUGC | 0.499
GACUUUGGGACUGGUCCUCGCAACGCAGCCUUCUAUAGCCCUCAUGGACAUAUAUUAGUAUUAGCUGGAUUUGGAAAUCUUCGAGGACAAAUGGAAGUAUGGGAUGUUAAAAACUACAAG | 0.649
GCAGGAUCUUCUAAGUACCAGUGGGGCAUUAUGAAAUCCCUUGGCCUCUCUGAUGACGACAUAGUGAAGUUUUCUGAAGCAGAGCACUGGCUUGAUUAUUUCCCACCACUGGCCGUUCAG | 0.146
UAAAUUAGGGCUGCCGUUUUCUGUUUCUCCCUGGGCUGCGGAAAGCCAGAAGAUUUUAUCUAGUUUGAACCAGGCUGCUGGUGUUCCCUCUUUUUUUCCACGAGGGUGUUUUUGGCUGCA | 0.891
AUUCCGAUUAUGGACACCGGUGAAAACCCAGAGGUUCCCUUCCCUCGGGACAUGAUCGACUUAGAGGCCAAUUUUGAGAAGAUUGAAAAUGAACUGAAGGAAAUCAACACAAACCAGGAA | 0.11
CAGCGCCGAGGCCGCGGUUUCCCCCUGGGUGUGCUGAGCAGCAGCCAUGGGCAUCAAAUUUUUAGAAGUUAUCAAACCAUUCUGUGCAGUUCUACCAGAAAUUCAGAAGCCUGAAAGGAA | 1.13
CGGAGCCCUCCUCUCCCACAGGCCCAAGAUGUGACCCACCAGUGCCUUUUGUCUUCCUGUCAGCUCUGUCAAUCACGGCCCUGCCUUCACGCCCACACCAAGUGCCCAAAGUGGGGAGGG | 0.282
CUCAUGGCUGCAGAAACAGGAAGUGGAAAAACUGGUGCAUUUAGUAUUCCAGUUAUCCAGAUAGUGUAUGAAACUCUGAAAGACCAACAGGAAGGAAAGAAAGGGAAAACAACAAUUAAA | 1.15
AAAUCGUGUGUGUCCAAUAUUGAAAGUGCUUUAUCUACACUCCAAUAUGUAAGCAGUAUAGUAGUUUCUUUAGAGAAUAGGUCAGCCAUUGUAAAGUACAAUGCAAGCUUAGUCACUCCA | 11.8
UCCCAAAUCCAGCAGCUAGAAGGAGCCUUGAGACAAAGCCUGGAAAUGCAGGGAGGGCGAUAACAUUGUACAUUGGUUUACAUUUUUUCCCCCUGUGGAUUUUUCUAGAGGUCAUAGUGC | 0.391
GAGUCGAGCAAACUUGAAACUACAGAAUAUCUUGCAGCCUCAGUGUUCACUUGCUUGGCGAUAGCAUUGGGGUUUUAUAUAGAUUCUAAGGAGAACUGACGAUGAUGCUGCCGCUGCUGC | 0.235

Study 5
Target: CCNB1, cyclin fold, Cln2 fusion (human)
Method: yeast growth competition, sequencing
Medium: yeast
Notes: strong parent motif
Relative to: not given
Reading: higher = stronger binding
Starting sequence: INSM1 docking peptide (human); PKAIRKLHFEDEV
Change | normalised enrichment score
K2Q | 3.51
I4A | 1.2
E10W | 1.03
K6H | 1.02
L7V | 0.286
R5I | 0.709
I4K | 1.34
F9S | 0.0412
E10I | 0.92
K6W | 0.221
E10K | 0.613
K6L | 0.333
A3N | 0.388
L7S | 0.38
E12K | 1.25
L7K | 0.173
H8R | 0.88
K2I | 2.53
E10P | 2.1
A3V | 5.92
A3L | 4.02
D11A | 1.61
I4E | 1.32
R5C | 2.21
A3T | 3.59

Excerpt of the above (study 2):
Oligonucleotide | E-score
ACTGTGTG | -0.137
AGAAATTG | 0.273
AACACACA | 0.112
ACCGATCA | 0.0508
ACTATACC | 0.149
AAGCAACG | -0.0622
TCATCAAA | 0.0142
GCATGCAA | 0.0547
GTGAGCAC | -0.0934
